{"data": "Experimental data collected from several papers", "note": "Protocols differ between the studies behind these lines.", "chain of UniProt P11229 (whole entry, looked up)": "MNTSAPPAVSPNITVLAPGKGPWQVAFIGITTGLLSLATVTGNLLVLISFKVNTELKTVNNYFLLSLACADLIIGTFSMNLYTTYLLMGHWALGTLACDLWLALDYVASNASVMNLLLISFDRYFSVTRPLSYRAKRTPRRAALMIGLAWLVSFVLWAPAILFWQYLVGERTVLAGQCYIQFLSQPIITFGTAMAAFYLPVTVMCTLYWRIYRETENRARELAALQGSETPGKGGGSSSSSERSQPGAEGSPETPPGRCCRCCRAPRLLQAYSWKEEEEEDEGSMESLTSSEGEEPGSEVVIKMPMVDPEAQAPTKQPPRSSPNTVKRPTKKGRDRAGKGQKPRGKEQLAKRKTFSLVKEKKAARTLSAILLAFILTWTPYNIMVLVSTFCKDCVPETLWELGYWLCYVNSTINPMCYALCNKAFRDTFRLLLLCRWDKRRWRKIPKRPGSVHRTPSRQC", "chain of UniProt Q9NYB5 (whole entry, looked up)": "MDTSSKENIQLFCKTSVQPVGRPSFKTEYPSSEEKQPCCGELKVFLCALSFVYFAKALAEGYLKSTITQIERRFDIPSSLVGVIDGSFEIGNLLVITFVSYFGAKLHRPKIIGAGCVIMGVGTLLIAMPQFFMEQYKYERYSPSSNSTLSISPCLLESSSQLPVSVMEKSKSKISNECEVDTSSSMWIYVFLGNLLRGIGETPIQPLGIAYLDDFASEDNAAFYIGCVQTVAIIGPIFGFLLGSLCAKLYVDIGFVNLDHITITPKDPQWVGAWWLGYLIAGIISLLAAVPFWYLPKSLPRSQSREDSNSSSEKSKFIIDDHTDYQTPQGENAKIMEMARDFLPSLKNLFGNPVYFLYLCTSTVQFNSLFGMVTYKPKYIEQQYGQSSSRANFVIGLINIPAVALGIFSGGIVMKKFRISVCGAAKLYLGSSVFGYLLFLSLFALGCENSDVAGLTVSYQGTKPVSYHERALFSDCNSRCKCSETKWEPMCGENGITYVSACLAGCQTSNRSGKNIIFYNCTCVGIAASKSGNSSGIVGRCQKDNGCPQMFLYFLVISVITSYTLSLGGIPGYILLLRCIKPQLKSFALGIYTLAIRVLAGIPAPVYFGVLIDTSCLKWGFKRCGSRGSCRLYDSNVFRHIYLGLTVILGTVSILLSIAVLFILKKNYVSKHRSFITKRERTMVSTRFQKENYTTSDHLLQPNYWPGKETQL", "chain of UniProt P05182 (whole entry, looked up)": "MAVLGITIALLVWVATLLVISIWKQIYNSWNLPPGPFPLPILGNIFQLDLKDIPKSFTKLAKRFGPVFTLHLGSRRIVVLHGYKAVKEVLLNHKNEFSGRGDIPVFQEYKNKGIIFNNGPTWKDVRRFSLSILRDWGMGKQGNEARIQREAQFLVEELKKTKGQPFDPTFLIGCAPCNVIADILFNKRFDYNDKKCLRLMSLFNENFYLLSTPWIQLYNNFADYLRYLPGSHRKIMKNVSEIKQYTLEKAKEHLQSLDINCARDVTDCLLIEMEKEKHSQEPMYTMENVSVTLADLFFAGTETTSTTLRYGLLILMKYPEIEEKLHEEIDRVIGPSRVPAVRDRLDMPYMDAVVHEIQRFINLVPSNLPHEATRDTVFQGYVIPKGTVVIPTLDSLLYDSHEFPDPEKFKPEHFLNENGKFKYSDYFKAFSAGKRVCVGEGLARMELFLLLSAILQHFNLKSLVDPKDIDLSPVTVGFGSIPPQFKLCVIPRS", "chain of UniProt P42336 (whole entry, unmodified, looked up)": "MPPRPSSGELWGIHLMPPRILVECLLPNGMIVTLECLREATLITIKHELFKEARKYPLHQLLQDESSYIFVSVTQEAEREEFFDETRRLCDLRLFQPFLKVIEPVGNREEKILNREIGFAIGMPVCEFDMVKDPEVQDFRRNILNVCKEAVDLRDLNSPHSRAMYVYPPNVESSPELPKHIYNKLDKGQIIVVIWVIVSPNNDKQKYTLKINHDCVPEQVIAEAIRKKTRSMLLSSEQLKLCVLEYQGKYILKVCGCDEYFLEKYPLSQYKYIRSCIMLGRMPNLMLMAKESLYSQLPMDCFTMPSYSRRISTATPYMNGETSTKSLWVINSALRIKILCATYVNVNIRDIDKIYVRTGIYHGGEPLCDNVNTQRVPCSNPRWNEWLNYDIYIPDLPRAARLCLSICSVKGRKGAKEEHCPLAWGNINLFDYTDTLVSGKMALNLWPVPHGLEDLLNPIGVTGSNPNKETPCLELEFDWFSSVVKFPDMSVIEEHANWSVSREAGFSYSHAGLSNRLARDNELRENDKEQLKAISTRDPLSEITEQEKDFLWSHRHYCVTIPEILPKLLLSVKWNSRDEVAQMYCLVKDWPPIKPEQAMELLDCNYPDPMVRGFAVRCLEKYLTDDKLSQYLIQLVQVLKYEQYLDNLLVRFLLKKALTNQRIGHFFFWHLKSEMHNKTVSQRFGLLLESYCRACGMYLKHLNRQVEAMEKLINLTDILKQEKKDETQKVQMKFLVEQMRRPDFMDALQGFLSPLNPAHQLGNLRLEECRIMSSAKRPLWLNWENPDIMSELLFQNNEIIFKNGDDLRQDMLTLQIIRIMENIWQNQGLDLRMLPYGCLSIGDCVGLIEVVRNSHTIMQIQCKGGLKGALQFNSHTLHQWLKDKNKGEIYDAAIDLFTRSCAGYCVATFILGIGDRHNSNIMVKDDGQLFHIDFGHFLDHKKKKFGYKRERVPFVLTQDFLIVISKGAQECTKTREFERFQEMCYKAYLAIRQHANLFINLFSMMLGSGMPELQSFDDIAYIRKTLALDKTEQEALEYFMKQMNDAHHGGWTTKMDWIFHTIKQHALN", "chain of UniProt Q00526 (whole entry, looked up)": "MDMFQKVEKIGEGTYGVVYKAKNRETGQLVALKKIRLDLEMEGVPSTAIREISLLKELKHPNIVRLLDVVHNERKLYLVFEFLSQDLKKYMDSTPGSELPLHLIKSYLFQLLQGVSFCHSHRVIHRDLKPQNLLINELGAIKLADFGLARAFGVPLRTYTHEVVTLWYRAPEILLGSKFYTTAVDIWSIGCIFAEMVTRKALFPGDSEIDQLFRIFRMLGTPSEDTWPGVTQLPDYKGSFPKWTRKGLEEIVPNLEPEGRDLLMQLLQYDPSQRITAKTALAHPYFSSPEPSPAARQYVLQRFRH", "chain of UniProt O33336 (whole entry, looked up)": "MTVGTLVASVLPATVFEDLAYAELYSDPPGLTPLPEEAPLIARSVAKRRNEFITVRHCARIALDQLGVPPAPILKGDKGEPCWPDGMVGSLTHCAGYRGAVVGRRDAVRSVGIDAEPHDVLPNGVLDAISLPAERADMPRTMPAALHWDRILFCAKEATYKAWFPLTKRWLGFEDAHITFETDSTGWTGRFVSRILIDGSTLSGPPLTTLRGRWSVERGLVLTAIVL", "chain of UniProt Q96BR1 (whole entry, looked up)": "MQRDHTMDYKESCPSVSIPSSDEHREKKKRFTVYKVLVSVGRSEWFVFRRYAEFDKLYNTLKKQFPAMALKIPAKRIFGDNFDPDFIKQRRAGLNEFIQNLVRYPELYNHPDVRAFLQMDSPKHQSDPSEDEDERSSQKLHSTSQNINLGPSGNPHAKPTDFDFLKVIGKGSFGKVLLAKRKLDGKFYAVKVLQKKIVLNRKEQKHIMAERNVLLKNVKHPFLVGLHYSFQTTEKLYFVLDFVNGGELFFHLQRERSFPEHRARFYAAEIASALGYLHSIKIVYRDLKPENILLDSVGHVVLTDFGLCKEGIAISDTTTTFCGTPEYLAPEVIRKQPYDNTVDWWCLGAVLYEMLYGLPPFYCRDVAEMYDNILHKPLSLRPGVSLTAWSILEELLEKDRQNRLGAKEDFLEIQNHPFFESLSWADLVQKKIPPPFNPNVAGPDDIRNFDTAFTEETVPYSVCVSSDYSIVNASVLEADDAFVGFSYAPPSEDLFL", "chain of UniProt P68400 (whole entry, looked up)": "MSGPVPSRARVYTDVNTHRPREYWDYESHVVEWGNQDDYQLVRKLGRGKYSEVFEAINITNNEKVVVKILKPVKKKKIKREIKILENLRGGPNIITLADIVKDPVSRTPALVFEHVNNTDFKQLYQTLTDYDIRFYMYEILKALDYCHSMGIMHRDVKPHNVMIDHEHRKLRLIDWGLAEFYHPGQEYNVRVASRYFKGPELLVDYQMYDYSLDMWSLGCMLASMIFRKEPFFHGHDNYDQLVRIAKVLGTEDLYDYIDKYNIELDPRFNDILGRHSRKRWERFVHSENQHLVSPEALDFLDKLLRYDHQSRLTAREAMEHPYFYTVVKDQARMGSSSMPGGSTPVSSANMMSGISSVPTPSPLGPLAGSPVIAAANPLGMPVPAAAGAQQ"}
{"Compound": "CC[C@H](C)[C@H]1C(=O)N[C@@H](Cc2ccc(O)cc2)C(=O)N2CCC[C@H]2C(=O)N[C@H]([C@H](C)O)C(=O)N[C@@H](CC(C)C)C(=O)N[C@@H](C(C)C)C(=O)N[C@@H](C)C(=O)N[C@@H](C)C(=O)N[C@@H](CO)C(=O)N[C@@H](Cc2ccccc2)C(=O)NCC(=O)N[C@H](C(=O)O)CSSC[C@H](N)C(=O)N1C", "test system": "aqueous buffer", "setting": "18 h, pH 7.4", "quantity": "thermodynamic solubility", "result": "842 µM"}
{"Compound": "O=c1c2cc(C(F)(F)F)ncc2[nH]c(=S)n1Cc1cccnc1", "tested on": "4'-phosphopantetheinyl transferase PptT (Mycobacterium tuberculosis, UniProt O33336)", "test": "enzyme activity, inhibitor, FP", "quantity": "IC50", "result": "5.78 µM"}
{"Compound": "CC(C)C[C@H](NC(=O)[C@H](Cc1ccccc1)NC(=O)[C@H](Cc1ccccc1)NC(=O)Cc1ccc(-c2ccccc2)cc1)C(=O)N[C@@H](CCCCN)C(=O)N[C@@H](CCCNC(=N)N)C(=O)N[C@H](C(=O)N[C@@H](Cc1c[nH]c2ccccc12)C(=O)N[C@@H](CCCCN)C(=O)N[C@@H](CCCNC(=N)N)C(=O)O)C(C)C", "test": "metabolic stability", "test system": "rat, liver microsomes", "setting": "45 min", "quantity": "compound remaining", "result": "16.9%"}
{"Compound": "NCCc1ccc(Oc2ccc(O)cc2)c(I)c1", "tested on": "Solute carrier organic anion transporter family member 1C1 (Homo sapiens, UniProt Q9NYB5)", "test": "transporter uptake, inhibitor, radiometric", "quantity": "IC50", "result": "4.8 µM"}
{"Compound": "CC(C)CC(=O)OC[C@H]1O[C@@](C#N)(c2ccc3c(N)ncnn23)[C@H](O)[C@@H]1O", "tested on": "CHRM1 (Homo sapiens, UniProt P11229)", "test": "cell-free assay", "setting": "20 µM", "quantity": "inhibition", "result": "-9%"}
{"Compound": "CC[C@H](C)[C@@H]1NC(=O)[C@H](CO)NC(=O)[C@H](C(C)C)NC(=O)[C@H](CC(C)C)NC(=O)[C@H](CC(C)C)NC(=O)[C@H]2CCCN2C(=O)[C@@H](CC(C)C)NC(=O)CNC(=O)[C@H]2CCCN2C(=O)[C@@H](Cc2ccc(O)cc2)NC1=O", "test system": "aqueous buffer", "setting": "18 h, pH 7.4", "quantity": "thermodynamic solubility", "result": "687 µM"}
{"Compound": "CC(C)C[C@H](NC(=O)[C@@H](NC(=O)/C=C/c1ccc(F)cc1)C(C)C)C(=O)N[C@H](C=O)C[C@@H]1CCCNC1=O", "tested on": "A549", "test": "cell growth or viability, MTT", "setting": "24 h", "quantity": "CC50", "result": "> 100 µM"}
{"Compound": "COc1ncccc1-c1cnn2ccc(N3CCN(C(=O)OC(C)C)CC3)nc12", "tested on": "CDK3 (Homo sapiens, UniProt Q00526)", "test": "binding, competition with immobilised ligand", "setting": "1 µM", "quantity": "remaining binding", "result": "92%"}
{"Compound": "Nc1ncc(-c2nc(N3CCOCC3)nc(N3CCOCC3)n2)c(C(F)F)n1", "tested on": "CSNK2A1 (Homo sapiens, UniProt P68400)", "test": "binding, competition with immobilised ligand", "setting": "10 µM", "quantity": "remaining binding", "result": "79%"}
{"Compound": "N=c1c2c(-c3ccccc3)c(-c3ccccc3)n(Cc3ccccc3)c2ncn1[C@H]1CC[C@H](O)CC1", "test system": "male cynomolgus monkey, plasma", "setting": "intravenous, 0.5 mg/kg, single dose", "quantity": "AUC(0-inf)", "result": "15 µg·h/mL"}
{"Compound": "Cc1nn(C)cc1-c1nc2c(N3CCN(Cc4ccc(Cl)cc4)CC3)c(Cl)cnc2[nH]1", "tested on": "PIK3CA (Homo sapiens, UniProt P42336, H1047L)", "test": "binding, competition with immobilised ligand", "setting": "1 µM", "quantity": "remaining binding", "result": "100%"}
{"Compound": "C#Cc1ccc2c(c1)C(c1ccccn1)=NCc1c(-c3cnco3)ncn1-2.Cl", "test system": "water", "setting": "80 min, 37 °C", "quantity": "kinetic solubility", "result": "4.48 mg/mL"}
{"Compound": "CONC(=O)[C@H]1[C@@H](O)[C@@]2(O)c3c(OC)cc(OC)cc3O[C@@]2(c2ccc(OC)cc2)[C@@H]1c1ccccc1", "tested on": "A549-ACE2", "test": "cell growth or viability, ATP luminescence", "setting": "48 h", "quantity": "CC50", "result": "0.2 µM"}
{"Compound": "CCOC(=O)C1=C(CN2CCCC2C(=O)Nc2cccc(B(O)O)c2)NC(c2nccs2)=NC1c1ccc(F)cc1Br (stereo not shown)", "tested on": "HepDES19", "test": "cell growth or viability, MTS", "setting": "72 h", "quantity": "CC50", "result": "37 µM"}
{"Compound": "[2H]c1c([2H])c([C@]2([2H])CCCN2C(=O)C(C)(C)Oc2ccc3cn[nH]c3c2)c([2H])c([2H])c1C([2H])([2H])[2H]", "tested on": "SGK3 (Homo sapiens, UniProt Q96BR1)", "test": "binding, competition with immobilised ligand", "setting": "1 µM", "quantity": "remaining binding", "result": "100%"}
{"Compound": "Cc1ncc2n1-c1ccc(Cl)cc1C(c1ccccc1F)=NC2", "test": "metabolic stability", "test system": "minipig, hepatocytes", "setting": "1 µM, 4 h", "quantity": "compound remaining", "result": "42%"}
{"Compound": "CC[C@H](C)[C@H]1C(=O)N[C@@H]([C@@H](C)O)C(=O)N[C@@H](C)C(=O)N[C@@H](Cc2ccccc2)C(=O)N[C@@H](CC(C)C)C(=O)NCC(=O)N[C@@H](CC(C)C)C(=O)N2CCC[C@@H]2C(=O)N[C@H](Cc2ccc(O)cc2)C(=O)N2CCC[C@H]2C(=O)NCC(=O)N[C@@H](CCCNC(=N)N)C(=O)N1C", "test system": "aqueous buffer", "setting": "18 h, pH 7.4", "quantity": "solubility", "result": "776 µM"}
{"Compound": "CC(C)C[C@H](NC(=O)[C@@H](NC(=O)/C=C/c1cccc(F)c1)C(C)C)C(=O)N[C@H](C=O)C[C@@H]1CCCNC1=O", "tested on": "A549", "test": "cell growth or viability, MTT", "setting": "24 h", "quantity": "CC50", "result": "> 100 µM"}
{"Compound": "C=CC1CO1 (stereo not shown)", "tested on": "Cytochrome P450 2E1 (Cyp2e1, Rattus norvegicus, UniProt P05182)", "test": "enzyme activity, inhibitor", "test system": "rat, liver microsomes", "quantity": "IC50", "result": "98 µM"}
{"note": "Some of these lines once more:"}
{"Compound": "O=c1c2cc(C(F)(F)F)ncc2[nH]c(=S)n1Cc1cccnc1", "tested on": "4'-phosphopantetheinyl transferase PptT (Mycobacterium tuberculosis, UniProt O33336)", "test": "enzyme activity, inhibitor, FP", "quantity": "IC50", "result": "5.78 µM"}
{"Compound": "COc1ncccc1-c1cnn2ccc(N3CCN(C(=O)OC(C)C)CC3)nc12", "tested on": "CDK3 (Homo sapiens, UniProt Q00526)", "test": "binding, competition with immobilised ligand", "setting": "1 µM", "quantity": "remaining binding", "result": "92%"}
